{"data": "Measured values of several laboratories", "route": "oral", "note": "Lines come from different studies, so protocols differ."}
{"Structure (SMILES)": "COc1cccc(-c2ccc(NC(=O)C3=C(C(=O)O)CCC3)c(F)c2)c1", "species": "human, male, fed", "medium": "plasma", "dose": "10 mg", "setting": "single dose, geometric mean", "AUC(0-t) [ng·h/mL]": 47400}
{"Structure (SMILES)": "CNc1nc(Nc2ccc(-n3cnc(C)n3)c(OC)c2)nc2c1CC[C@H]2c1ccc(F)cc1", "species": "human", "dose": "100 mg once daily", "time": "day 28", "setting": "multiple ascending dose, geometric mean", "AUC(0-t) [ng·h/mL]": 9080}
{"Structure (SMILES)": "CC(C)[C@@H](CS(=O)(=O)C(C)C)N1C(=O)[C@@](C)(CC(=O)O)C[C@H](c2cccc(Cl)c2)[C@H]1c1ccc(Cl)cc1", "species": "human", "medium": "plasma", "dose": "60 mg", "setting": "new tablet, fasted, geometric LS mean", "AUC(0-t) [ng·h/mL]": 2860}
{"Structure (SMILES)": "C=CC(=O)Nc1cc(Nc2ncc(C(=O)OC(C)C)c(-c3cn(C)c4ccccc34)n2)c(OC)cc1N(C)CCN(C)C", "species": "human, fasted", "dose": "160 mg single dose", "setting": "arithmetic mean", "AUC(0-t) [ng·h/mL]": 1100}
{"Structure (SMILES)": "CC(C)NC[C@@H](C(=O)N1CCN(c2ncnc3c2[C@H](C)C[C@H]3O)CC1)c1ccc(Cl)cc1", "species": "human, hepatic impairment Moderate (Child-Pugh)", "medium": "plasma", "dose": "100 mg single", "setting": "geometric mean", "AUC(0-t) [ng·h/mL]": 726}
{"Structure (SMILES)": "Cc1cc(-c2nnc(N)nc2-c2ccc(F)cc2)cc(Cl)n1", "species": "human patients", "medium": "plasma", "dose": "150 mg capsule, single dose", "setting": "arithmetic mean", "AUC(0-t) [ng·h/mL]": 9290}
{"Structure (SMILES)": "C=C(C)[C@@H]1CC[C@]2(NCCN3CCS(=O)(=O)CC3)CC[C@]3(C)[C@H](CC[C@@H]4[C@@]5(C)CC=C(C6=CC[C@@](CF)(C(=O)O)CC6)C(C)(C)[C@@H]5CC[C@]43C)[C@@H]12", "species": "healthy human volunteers", "medium": "plasma", "dose": "200 mg", "setting": "tablet, fasted state, mean", "AUC(0-t) [ng·h/mL]": 13500}
{"Structure (SMILES)": "Cc1ccc(NC(=O)c2ccc(CN3CCN(C)CC3)cc2)cc1Nc1nccc(-c2cncc(-c3oncc3C)c2)n1", "species": "older healthy human adults", "medium": "plasma", "dose": "125 mg single dose", "setting": "fed, mean", "AUC(0-t) [ng·h/mL]": 109000}
